Published values pooled from the literature.
Parts stem from different laboratories: compare values within a part only. Positions count from the first letter of the parent shown.

Sample 1 — target: CCNF, cyclin fold, Cln2 fusion (human); technique: yeast growth competition, sequencing; sample: yeast; setting: strong parent motif; relative to: not given; reading: higher = stronger binding
Starting sequence: PKN2 docking peptide (human); VSAVRKLDFSDTM
Variant	normalised enrichment score
L7M	0.386
F9S	0.142
K6T	6.04
D8Y	8.04
V4K	7.58
S2Y	6.91
S10T	7.26
V4L	6.29
K6I	6.04
F9G	0.238
L7E	-0.00204
L7Q	-0.19
S2I	7.38

Sample 2 — technique: DHFR PCA, deep sequencing; sample: yeast; together with: (+)-ABA 0.032 µM; relative to: wild-type fitted maximum; reading: higher = stronger binding
Target: ABI1, truncated, D143A, DHFR fusion (Arabidopsis thaliana)
Setting: methotrexate growth selection, single substitutions
Starting sequence: PYL1, truncated, DHFR fusion (Arabidopsis thaliana); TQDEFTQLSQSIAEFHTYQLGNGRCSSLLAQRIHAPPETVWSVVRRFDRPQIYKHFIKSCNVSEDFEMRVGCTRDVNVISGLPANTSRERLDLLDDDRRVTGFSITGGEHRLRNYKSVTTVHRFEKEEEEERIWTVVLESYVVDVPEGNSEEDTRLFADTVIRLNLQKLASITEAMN
Variant	relative binding score [%]
E4C	9.68
F5D	-3.09
E64V	6.14
D48V	-2.17
H110I	5.82
G148L	-6.18
R123M	5.46
R24S	5.97
L94T	0.292
S171C	12.1
V62D	3.84
E129S	38.5
M176V	6.9
T106I	77.1
K126C	53.8
L164C	14.1

Sample 3 — technique: RNA Bind-n-Seq; molecule type: RNA; sample: in vitro; concentration: 365 nM; relative to: no-protein control; reading: higher = stronger binding
Target: RNA binding protein fox-1 homolog 2, RRM domain, GST-SBP tag (RBFOX2, Homo sapiens, UniProt O43251-10, residues 100-194)
Setting: natural RNA segment, single round, ends assumed
All sequences stand within: GGGAGUUCUACAGUCCGACGAUC … UGGAAUUCUCGGGUGCCAA
Residues (chain): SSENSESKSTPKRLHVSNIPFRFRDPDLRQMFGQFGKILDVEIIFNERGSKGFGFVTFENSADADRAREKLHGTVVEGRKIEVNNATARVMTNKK
Strand	RBNS enrichment (R)
UUGGGCAGUGCCUCUGGGCACUAAUGUUCAUUAGUCCAAGUUUUUGAAGAUCUGCACACAGUAAGUGAUCCUCAGAAAUGUCCCUUCCAGCUCACAAACUCAGUUGGCCC	0.354
CCUAUAUGGUCCUCGUGUUGGCUUAUCCCAGGAGCCUACUUCCCAGAGUCCUGCCUAGGGCACCCGGGGAAGCCCGUCCCCACUUCCCCACUCUGUAAGUGUUUUGGAGU	0.502
AGUUUGGAAAAAUCAUGGUCAACAUUCCCAUUUUCAUAGAUCACAAUGUAAAUCACUAUAAUUACAAAUUGGUGUUAAAUCCUUUGGGUUAUCCACUGCCUUAAAAUUAU	0.571
CUUAGAGGAUCUCCGAGAGGUCCCCGCAGCUCUAGGGAGAUCUGAUUUUGUGUUUUUUGUUUAAGUACUUCACACAGAAGCCUAGGUAGAUUUAAAAUGGGGUGCUCAGG	0.505
UUGAGGUUUCCAGCCUCUUCCAAGACCUUGCCAGGCUGAGUGGGGCCUGAGAGCUUGCAGGCACUUAAAGCUUCCUGGCAAAGGGGCCGGCCACAGGCAGAGGGAAAGGA	1.01
ACUGAGCCCUGAACCCCAACCCUGCGGCCGGUGACUCUCCCCAACCCCCAUAUGCCCAGUCUUGCUUGAAGUAGCACAGACCCUGUGUGGGUUUGGCCCCUAGCUCCCAC	0.398
UGUUUGAAAUUAGUAACAAUGCUGCAUCUAGAUUGGAGUGCUGCCCAGCCAUAGAAGCAGAGCUGAACAGUAUCACAUAGCGAUUCAUGGUCACUCGCAACCUGAGUUCA	0.489
AAACAACACGCUCUCCUUCAGACAAUGAGGCAUUCUGUCCUCCUGCUGCCAUUCUUCAUCUCCACUGAGAGCCAGAGCUGGUAGGAGCCGAGUGCCACAGGCAUUCUGCA	0.607
UCUGGAACACAGCCUGAUCUACAAGUACCAGCAUCGUUCUUUUGCCAGCCAGUGAUUUUCUUUUAAAUGAAAAUGAUGGGAUGAGAUGUAAUUUUAGAUCGGGAAGAGAG	1.04
AGCAGCAGCCCCGGCAACUCUGGCUCCAGGCAGAAGGAGAGGCCCGGUGCAGCUGAGGUUCCCGACACCAGAAGCUGUUGGGAGAAAGCAAUACGUUUGUGCAGAAUCUC	0.375
GGGCAGGGAGGGUACAGCCAGGCUCACAGCACUGAGAGUCUCAACCAGCUAAGCUAAAUUGCAAGCUAGAUGCCUCCUGCCCCUGCCCUCAGCUGCCCAGGCCCCAGCAU	0.892
CAGAAUUCUAUAGCAUGAAGGUUAACCUUGUCUCCAUUCAUGGGGGUUUAAUUGCCCUAUUGCUCAAUGGUGUUCUUGCAUGGGGAUUCUCCAGUCCUACAGAUGAAAGC	4.65

Sample 4 — technique: RNA Bind-n-Seq; molecule type: RNA; sample: in vitro; concentration: 1 µM; setting: whole 134-nt RNA, ends assumed; together with: 150 mM KCl; relative to: input library; reading: higher = stronger binding
Target: Ras GTPase-activating protein-binding protein 1, RRM domain (G3BP1, Homo sapiens, UniProt Q13283)
Chain of UniProt Q13283 (whole entry, looked up): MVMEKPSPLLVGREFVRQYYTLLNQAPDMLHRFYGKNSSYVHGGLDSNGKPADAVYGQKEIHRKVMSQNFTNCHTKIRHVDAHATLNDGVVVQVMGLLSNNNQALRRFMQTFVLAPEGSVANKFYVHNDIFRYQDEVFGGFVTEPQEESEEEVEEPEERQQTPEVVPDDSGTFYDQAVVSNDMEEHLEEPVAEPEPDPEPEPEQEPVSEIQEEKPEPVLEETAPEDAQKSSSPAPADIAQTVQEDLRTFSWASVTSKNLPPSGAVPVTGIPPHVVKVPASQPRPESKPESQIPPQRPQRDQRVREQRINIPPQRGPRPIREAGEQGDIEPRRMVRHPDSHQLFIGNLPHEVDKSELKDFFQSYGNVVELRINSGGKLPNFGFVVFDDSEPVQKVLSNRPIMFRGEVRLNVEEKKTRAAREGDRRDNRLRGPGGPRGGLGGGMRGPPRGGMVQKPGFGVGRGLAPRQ
All sequences stand within: GGGAGUUCUACAGUCCGACGAUC … UGGAAUUCUCGGGUGUCAAGG
Strand	log2 enrichment
ACCAUGCAGGUGGGCAUCUUUGGGAAGUGGGGCAAGGGGGGGAUAGGGAGGGGGGUAACACUUUGGGAACAGGUGGUCUCAGGUCGUUUC	0.788
UCAAGUCCUGUGCUACACAUCGUAUGUACCGAAUCGGGAAAGGAAAGGAAAGGGGAAAGUAUUAUGUUACGCCGUUCGGAUCUGCACUUC	-0.263
CCUCAAGUCCUGUGCUACACAUCGUAUGUACCGAAUCGGUUGGUUGGUUGGGGAAAGUAUUAUGUUACGCCGUUCGGAUCUGCACUUCCA	-0.215
CAAGUCCUGUGCUACACAUCGUAUGUACCGAAUCGUGUGUGUGUGUGUGUGUGUGAAAGUAUUAUGUUACGCCGUUCGGAUCUGCACUUC	0.0431
GCAGGAAGUAAAAACAAAUGGAAAUGCUUCGGAUAGUGGCAGGGGUGGGGGUUGCUAAGGAAAGGGUAAAAUGGGAGUGGGUAAAGAGUU	1.27
UUUGUAGAGCAGCCCGACGGCCAUGGAGGCUGAAGAGACGAUGGAAUGCCUUCAGGAGUUCCCUGAACAUCAUAAAAUGAUCCUCGACCG	-0.0442
AAGUCCUGUGCUACACAUCGUAUGUACCGAAUCGGGGUUUUGGGUUUUGGUUUUGGAAAGUAUUAUGUUACGCCGUUCGGAUCUGCACUU	-0.395
UCCUGUGCUACACAUCGUAUGUACCGAAUCAAAUUUUUUUAAAUUUUUUUAAACCCAAAAAAGUAUUAUGUUACGCCGUUCGGAUCUGCA	-1.22
GUCCUGUGCUACACAUCGUAUGUACCGAAUCAAAUUUUUUUAAAUUUUUAAACCCAAAAAAGUAUUAUGUUACGCCGUUCGGAUCUGCAC	-1.62
UCUCCACCUGCUGAGCUCCCCAGUUUGAGGCGGAGCACACGCCAAAAGACCACGGGCUCCUGUGCUAGUACCAGGUAAUUUGUUUUUUUU	-0.11
UCCUCAAGUCCUGUGCUACACAUCGUAUGUACCGAAUCGGUUUGGAGGUGGAAAGUAUUAUGUUACGCCGUUCGGAUCUGCACUUCCAGC	-0.146
AGUCCUGUGCUACACAUCGUAUGUACCGAAUCGGUUUUUUUGGUUUGGAAAAAAAGGAAAGUAUUAUGUUACGCCGUUCGGAUCUGCACU	-0.244
GCAGGAAGUAAAAACAAAUGGAAAUGCUUCGGAUAGUGGCAGGGGUGGGGGUUGCUAAGGAAAGGGCGGGAUGGGAGUGGGUAAAGAGUU	0.701
UAACUUUAGAGGAGGAUCUGAUGGAUAUGGCAGUGGACGUGGAUUCGGGGAUGGCUAUAAUGGGUAUGGAGGAGGACCUGGAGGUGGCAA	-0.633

Sample 5 — technique: universal PBM; molecule type: double-stranded DNA, one strand shown; sample: in vitro; concentration: not given; reading: higher = stronger binding
Target: Sal-like protein 4, full length isoform B (SALL4, Homo sapiens, UniProt Q9UJQ4-2, residues 1-616)
Setting: 8-mer, flanks averaged, mean of replicates
Strand	E-score
AATCAGTA	0.176
CTCTCCAG	-0.342
AAGGCAGC	-0.203
GGCCGGCC	-0.32
CCACGGTA	-0.182
ATAACCGG	0.158
AACTTTCA	0.208
CATCGCCG	-0.168
CGTCTCGA	0.00506
CGGCAACG	-0.15
AACCCTGA	0.0789
GCGTTCGA	-0.164
CAGTTTCA	-0.00449
ATACAGGA	0.194
CCCTCTAA	-0.127
GTGAGCAA	-0.154
CCCCTGCA	-0.339
CAGTTTTC	0.0861
AAGATCCG	-0.2
TACTCTCA	0.119
CCACCAGG	-0.346

For quick reference, copied from above (sample 4):
Strand	log2 enrichment
CAAGUCCUGUGCUACACAUCGUAUGUACCGAAUCGUGUGUGUGUGUGUGUGUGUGAAAGUAUUAUGUUACGCCGUUCGGAUCUGCACUUC	0.0431
UAACUUUAGAGGAGGAUCUGAUGGAUAUGGCAGUGGACGUGGAUUCGGGGAUGGCUAUAAUGGGUAUGGAGGAGGACCUGGAGGUGGCAA	-0.633
CCUCAAGUCCUGUGCUACACAUCGUAUGUACCGAAUCGGUUGGUUGGUUGGGGAAAGUAUUAUGUUACGCCGUUCGGAUCUGCACUUCCA	-0.215
UCCUCAAGUCCUGUGCUACACAUCGUAUGUACCGAAUCGGUUUGGAGGUGGAAAGUAUUAUGUUACGCCGUUCGGAUCUGCACUUCCAGC	-0.146
UCCUGUGCUACACAUCGUAUGUACCGAAUCAAAUUUUUUUAAAUUUUUUUAAACCCAAAAAAGUAUUAUGUUACGCCGUUCGGAUCUGCA	-1.22
GCAGGAAGUAAAAACAAAUGGAAAUGCUUCGGAUAGUGGCAGGGGUGGGGGUUGCUAAGGAAAGGGCGGGAUGGGAGUGGGUAAAGAGUU	0.701
AGUCCUGUGCUACACAUCGUAUGUACCGAAUCGGUUUUUUUGGUUUGGAAAAAAAGGAAAGUAUUAUGUUACGCCGUUCGGAUCUGCACU	-0.244
UCAAGUCCUGUGCUACACAUCGUAUGUACCGAAUCGGGAAAGGAAAGGAAAGGGGAAAGUAUUAUGUUACGCCGUUCGGAUCUGCACUUC	-0.263
AAGUCCUGUGCUACACAUCGUAUGUACCGAAUCGGGGUUUUGGGUUUUGGUUUUGGAAAGUAUUAUGUUACGCCGUUCGGAUCUGCACUU	-0.395
